# Measured values gathered from unrelated publications.
# Every numbered part comes from another study and shows a few of its results, in no order. Several values in a cell are separate wells, animals, samples, runs or records.
# Chain of UniProt P31751 (whole entry, looked up): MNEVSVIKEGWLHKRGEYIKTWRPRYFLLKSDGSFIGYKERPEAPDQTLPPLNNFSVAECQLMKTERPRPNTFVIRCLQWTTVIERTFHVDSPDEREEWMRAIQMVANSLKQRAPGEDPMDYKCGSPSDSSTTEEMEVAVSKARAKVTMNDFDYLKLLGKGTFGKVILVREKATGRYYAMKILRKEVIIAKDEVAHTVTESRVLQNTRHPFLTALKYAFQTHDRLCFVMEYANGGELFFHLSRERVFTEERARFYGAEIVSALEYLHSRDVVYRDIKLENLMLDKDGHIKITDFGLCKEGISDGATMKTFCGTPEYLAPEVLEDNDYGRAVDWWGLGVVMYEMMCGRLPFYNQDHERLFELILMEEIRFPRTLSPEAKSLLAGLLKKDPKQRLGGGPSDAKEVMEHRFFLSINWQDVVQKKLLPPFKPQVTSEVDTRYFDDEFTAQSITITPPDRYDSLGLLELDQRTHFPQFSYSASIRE
# Chain of UniProt P53671 (whole entry, looked up): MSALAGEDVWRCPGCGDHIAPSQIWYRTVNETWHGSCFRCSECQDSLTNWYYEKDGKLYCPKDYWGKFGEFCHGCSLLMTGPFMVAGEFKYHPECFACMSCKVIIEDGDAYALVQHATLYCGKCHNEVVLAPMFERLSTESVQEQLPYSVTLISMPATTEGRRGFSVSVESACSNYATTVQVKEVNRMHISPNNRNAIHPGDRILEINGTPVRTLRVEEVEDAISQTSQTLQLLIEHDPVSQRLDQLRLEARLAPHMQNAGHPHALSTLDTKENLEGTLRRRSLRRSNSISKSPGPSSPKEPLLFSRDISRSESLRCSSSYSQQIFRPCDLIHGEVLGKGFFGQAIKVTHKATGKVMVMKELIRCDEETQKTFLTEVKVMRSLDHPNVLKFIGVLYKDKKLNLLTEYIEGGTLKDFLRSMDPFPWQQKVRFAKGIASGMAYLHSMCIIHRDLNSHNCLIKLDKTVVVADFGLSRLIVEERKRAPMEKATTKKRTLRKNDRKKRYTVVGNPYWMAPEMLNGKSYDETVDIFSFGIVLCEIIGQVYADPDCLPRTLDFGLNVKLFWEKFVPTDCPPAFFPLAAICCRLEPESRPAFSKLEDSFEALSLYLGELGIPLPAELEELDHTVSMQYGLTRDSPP
# Chain of UniProt P45985 (whole entry, looked up): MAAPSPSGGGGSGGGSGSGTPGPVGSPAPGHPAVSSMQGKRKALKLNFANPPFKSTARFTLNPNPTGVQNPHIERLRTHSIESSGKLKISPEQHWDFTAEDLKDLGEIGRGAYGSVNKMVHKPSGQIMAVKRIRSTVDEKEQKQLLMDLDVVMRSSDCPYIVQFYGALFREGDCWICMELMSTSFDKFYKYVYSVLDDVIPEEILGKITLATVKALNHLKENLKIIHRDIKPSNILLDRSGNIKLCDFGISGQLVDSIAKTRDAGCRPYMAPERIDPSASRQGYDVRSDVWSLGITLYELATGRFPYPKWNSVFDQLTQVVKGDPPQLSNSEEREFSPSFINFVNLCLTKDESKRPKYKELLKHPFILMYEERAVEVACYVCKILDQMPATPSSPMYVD
# Chain of UniProt Q00537 (whole entry, looked up): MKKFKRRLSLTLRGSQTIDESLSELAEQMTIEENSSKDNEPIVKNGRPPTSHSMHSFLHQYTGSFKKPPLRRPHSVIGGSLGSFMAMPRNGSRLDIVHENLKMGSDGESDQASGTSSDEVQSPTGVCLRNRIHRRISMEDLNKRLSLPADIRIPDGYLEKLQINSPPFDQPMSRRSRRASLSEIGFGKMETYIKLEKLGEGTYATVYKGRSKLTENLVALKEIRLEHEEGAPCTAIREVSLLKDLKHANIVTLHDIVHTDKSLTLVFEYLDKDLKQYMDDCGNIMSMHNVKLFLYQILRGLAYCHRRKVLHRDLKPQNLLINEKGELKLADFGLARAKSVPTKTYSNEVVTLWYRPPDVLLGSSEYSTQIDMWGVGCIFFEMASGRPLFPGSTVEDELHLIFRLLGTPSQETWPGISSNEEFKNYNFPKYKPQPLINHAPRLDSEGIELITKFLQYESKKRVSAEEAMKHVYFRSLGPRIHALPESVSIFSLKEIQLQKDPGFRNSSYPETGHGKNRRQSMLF
# Chain of UniProt Q9Y6R4 (whole entry, looked up): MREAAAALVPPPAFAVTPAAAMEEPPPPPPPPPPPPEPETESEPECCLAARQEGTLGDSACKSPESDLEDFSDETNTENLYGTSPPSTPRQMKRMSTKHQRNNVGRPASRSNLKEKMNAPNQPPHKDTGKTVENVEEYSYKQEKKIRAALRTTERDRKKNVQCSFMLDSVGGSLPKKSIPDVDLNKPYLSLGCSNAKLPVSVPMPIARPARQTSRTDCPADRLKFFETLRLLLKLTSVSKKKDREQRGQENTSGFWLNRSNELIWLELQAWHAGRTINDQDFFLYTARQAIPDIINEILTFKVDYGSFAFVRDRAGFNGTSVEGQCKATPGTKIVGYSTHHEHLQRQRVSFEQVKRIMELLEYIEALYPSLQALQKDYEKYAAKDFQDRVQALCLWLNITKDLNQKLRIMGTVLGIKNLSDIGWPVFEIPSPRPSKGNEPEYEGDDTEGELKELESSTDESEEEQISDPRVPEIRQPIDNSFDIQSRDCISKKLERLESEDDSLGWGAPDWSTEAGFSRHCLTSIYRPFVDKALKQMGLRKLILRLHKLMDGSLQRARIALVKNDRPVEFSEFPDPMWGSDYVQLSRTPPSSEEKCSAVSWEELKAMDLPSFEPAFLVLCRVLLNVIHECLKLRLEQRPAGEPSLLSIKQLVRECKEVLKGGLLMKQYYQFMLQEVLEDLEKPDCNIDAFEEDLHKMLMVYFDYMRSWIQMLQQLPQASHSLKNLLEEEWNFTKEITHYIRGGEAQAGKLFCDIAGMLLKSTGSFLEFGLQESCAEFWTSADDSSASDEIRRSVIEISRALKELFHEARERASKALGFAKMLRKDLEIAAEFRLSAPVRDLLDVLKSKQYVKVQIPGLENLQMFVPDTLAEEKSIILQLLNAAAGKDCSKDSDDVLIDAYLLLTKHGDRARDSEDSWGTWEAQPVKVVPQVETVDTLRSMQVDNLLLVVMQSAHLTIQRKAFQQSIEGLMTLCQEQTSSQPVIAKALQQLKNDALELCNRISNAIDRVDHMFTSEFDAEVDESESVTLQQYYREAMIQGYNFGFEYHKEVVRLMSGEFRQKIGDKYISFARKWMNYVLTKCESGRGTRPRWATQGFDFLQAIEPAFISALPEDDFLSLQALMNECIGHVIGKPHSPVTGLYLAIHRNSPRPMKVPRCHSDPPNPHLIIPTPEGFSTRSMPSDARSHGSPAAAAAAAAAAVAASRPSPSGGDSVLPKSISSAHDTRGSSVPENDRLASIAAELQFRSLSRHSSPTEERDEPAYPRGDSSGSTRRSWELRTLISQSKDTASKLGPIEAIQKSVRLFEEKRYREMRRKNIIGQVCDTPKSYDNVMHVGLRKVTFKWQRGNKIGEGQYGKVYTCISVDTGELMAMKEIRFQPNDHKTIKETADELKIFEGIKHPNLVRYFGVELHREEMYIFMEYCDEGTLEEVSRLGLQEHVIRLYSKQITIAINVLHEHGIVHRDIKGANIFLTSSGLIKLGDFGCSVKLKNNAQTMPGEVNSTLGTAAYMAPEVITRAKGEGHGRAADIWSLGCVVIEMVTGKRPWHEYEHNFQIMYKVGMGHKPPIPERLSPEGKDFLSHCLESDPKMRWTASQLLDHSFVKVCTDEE

# Study 1 — cell line: A-375; tested at: 100 µM; time: 18 h
Structure (SMILES),viability
N[C@H]1CONC1=O,99.2%
C=CC(=O)N1CCC[C@@H](n2nc(-c3ccc(Oc4ccccc4)cc3)c3c(N)ncnc32)C1,7.96%
CCN(Cc1ccncc1)C(=O)C(CO)c1ccccc1 (centres unmarked),95.3%
CC1Cc2ccccc2N1NC(=O)c1ccc(Cl)c(S(N)(=O)=O)c1 (centres unmarked),99.8%
Cc1ccc(=O)n(-c2ccccc2)c1,101%
O=C1c2c(O)cccc2C([C@@H]2O[C@H](CO)[C@@H](O)[C@H](O)[C@H]2O)c2cc(CO)cc(O)c21 (some centres unmarked),100%
CC=Cc1ccc(OC)cc1,81%
CCCCCCCCCCCCCCCCOc1nc2ccc(C)cc2c(=O)o1,106%
O=C(c1ccc(OCCN2CCCCC2)cc1)c1c(-c2ccc(O)cc2)sc2cc(O)ccc12,9.1%
COc1cc(Nc2c(C#N)cnc3cc(OCCCN4CCN(C)CC4)c(OC)cc23)c(Cl)cc1Cl,97.2%
Clc1ccc2nsnc2c1NC1=NCCN1,101%
Cc1cc(Nc2ncc(Cl)c(Nc3ccccc3S(=O)(=O)C(C)C)n2)c(OC(C)C)cc1C1CCNCC1,8.05%
C[Se]CC[C@H](N)C(=O)O,94.9%
CC(=O)/N=c1/sc(S(N)(=O)=O)nn1C,101%
O=C(CCCCCCNC(=O)c1cnc(N(c2ccccc2)c2ccccc2)nc1)NO,57.2%
CC(=O)O[C@]1(C(C)=O)CC[C@H]2[C@@H]3CCC4=CC(=O)CCC4=C3[C@@H](c3ccc(N(C)C)cc3)C[C@@]21C,87.8%
CC(C(=O)O)c1cccc(Oc2ccccc2)c1 (centres unmarked),100%
CN1CCN(c2c(F)cc3c(=O)c(C(=O)O)cn4c3c2OCN4C)CC1,88.7%
CC(=O)OCC(=O)[C@@]1(O)CC[C@H]2[C@@H]3CCC4=CC(=O)CC[C@]4(C)[C@H]3C(=O)C[C@@]21C,105%
CC(C)c1nc(N(C)S(C)(=O)=O)nc(-c2ccc(F)cc2)c1/C=C/[C@@H](O)C[C@@H](O)CC(=O)O,105% and 102%
CC#CCn1c(N2CCC[C@@H](N)C2)nc2c1c(=O)n(Cc1nc(C)c3ccccc3n1)c(=O)n2C,63.6%

# Study 2 — read-out: enzyme activity; mode: inhibitor; tested at: 0.5 µM; reference: control
# Target: Ephrin type-A receptor 8 (EPHA8, Homo sapiens, UniProt P29322)
# Chain of UniProt P29322 (whole entry, looked up): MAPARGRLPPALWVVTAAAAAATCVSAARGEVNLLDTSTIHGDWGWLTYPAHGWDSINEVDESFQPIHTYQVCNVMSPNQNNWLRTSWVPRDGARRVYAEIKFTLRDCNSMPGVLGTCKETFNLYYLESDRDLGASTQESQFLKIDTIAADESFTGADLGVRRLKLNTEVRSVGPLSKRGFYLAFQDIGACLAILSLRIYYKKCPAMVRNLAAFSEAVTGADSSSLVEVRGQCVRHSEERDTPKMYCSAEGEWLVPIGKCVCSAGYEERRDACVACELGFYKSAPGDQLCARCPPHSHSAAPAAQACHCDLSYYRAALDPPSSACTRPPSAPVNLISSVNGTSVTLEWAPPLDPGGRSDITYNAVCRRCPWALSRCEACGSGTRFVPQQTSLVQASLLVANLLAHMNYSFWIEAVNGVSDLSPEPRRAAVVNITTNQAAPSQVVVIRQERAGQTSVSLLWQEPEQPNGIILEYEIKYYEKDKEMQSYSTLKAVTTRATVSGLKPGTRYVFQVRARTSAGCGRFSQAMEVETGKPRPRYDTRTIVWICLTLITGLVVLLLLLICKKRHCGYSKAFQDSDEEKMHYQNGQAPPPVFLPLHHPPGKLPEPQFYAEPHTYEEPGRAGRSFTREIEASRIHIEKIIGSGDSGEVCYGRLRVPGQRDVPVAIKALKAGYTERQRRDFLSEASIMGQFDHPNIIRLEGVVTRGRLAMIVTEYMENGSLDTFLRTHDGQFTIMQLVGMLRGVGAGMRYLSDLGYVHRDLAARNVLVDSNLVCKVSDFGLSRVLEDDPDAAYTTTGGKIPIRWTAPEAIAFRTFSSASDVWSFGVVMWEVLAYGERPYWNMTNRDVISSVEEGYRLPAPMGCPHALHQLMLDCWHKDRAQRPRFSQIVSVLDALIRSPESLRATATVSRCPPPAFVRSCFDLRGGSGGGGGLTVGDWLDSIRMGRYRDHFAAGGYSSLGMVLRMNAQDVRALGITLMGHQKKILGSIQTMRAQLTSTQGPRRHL
Compound,remaining activity
Cn1cc(/C=C2\C(=O)Nc3ccc(S(N)(=O)=O)cc32)c2ccccc21,83.4%
COc1cc2ncc(-c3ccccc3)nc2cc1OC,93.1%
COc1ccc(Cl)cc1NC(=O)Nc1cc(C)nc2ccccc12,97.8%
Cc1ccc(NC(=O)c2ccc(CN3CCN(C)CC3)cc2)cc1Nc1nccc(-c2cccnc2)n1,94.7%
CCC(=O)Nc1ccc2ncnc(Nc3cccc(Br)c3)c2c1,96.6%
CCOc1cc2ncnc(Nc3cccc(Br)c3)c2cc1OCC,87.3%
O=C(Nc1ccc(Cl)cc1)c1ccccc1NCc1ccncc1,87.6%
CC(=O)O/N=C1/C(c2c(O)[nH]c3cc(Br)ccc23)=Nc2ccccc21,96.3%
CN(C)CCCn1cc(C2=C(c3c[nH]c4ccccc34)C(=O)NC2=O)c2ccccc21,102%
O=C1NC(=O)/C(=C/c2ccc3nccnc3c2)S1,94.2%
CC(C)[C@H](CO)Nc1nc(Nc2cccc(Cl)c2)c2ncn(C(C)C)c2n1,102%
Cn1cnc2cc3c(Nc4cccc(Br)c4)ncnc3cc21,85.4%
O=c1cc(N2CCOCC2)oc2c1ccc1ccccc12,101%
CCN1/C(=C/C(C)=O)Sc2ccc(OC)cc21,98.5%
COc1ccc(-c2cnc3c(-c4ccsc4)cnn3c2)cc1,90.3%
CC(C)c1nn(-c2c(Cl)cccc2Cl)c2nc(Cc3ccc(OCCO)cc3)[nH]c(=O)c12,102%
COc1cc2ncnc(Nc3ccc(OCc4ccccc4)cc3)c2cc1OC,102%
Cc1nc(Nc2ncc(C(=O)Nc3c(C)cccc3Cl)s2)cc(N2CCN(CCO)CC2)n1,4.13%
COc1cc2ncnc(N3CCN(C(=O)Nc4ccc(Oc5ccccc5)cc4)CC3)c2cc1OC,92.5%
Nc1[nH]nc2nnc(-c3c(-c4ccccc4)nn4ccccc34)cc12,100%
CS(=O)(=O)CCNCc1ccc(-c2ccc3ncnc(Nc4ccc(OCc5cccc(F)c5)c(Cl)c4)c3c2)o1,99.5%
C[S+]([O-])c1ccc(-c2nc(-c3ccncc3)c(-c3ccc(F)cc3)[nH]2)cc1 (centres unmarked),101%

# Study 3 — read-out: cell-free assay; method: competition with immobilised ligand; tested at: 1 µM
# SMILES: O=C(Nc1cccnn1)N1CCC(=Cc2cccc(Oc3ccc(C(F)(F)F)cn3)c2)CC1
target,remaining binding [%]
"Dual specificity mitogen-activated protein kinase kinase 4 (MAP2K4, Homo sapiens, UniProt P45985)",100
"Epidermal growth factor receptor (EGFR, Homo sapiens, UniProt P00533, L858R)",100
"Mitogen-activated protein kinase kinase kinase 4 (MAP3K4, Homo sapiens, UniProt Q9Y6R4)",100
"Ribosomal protein S6 kinase alpha-2, N-terminal kinase domain (RPS6KA2, Homo sapiens, UniProt Q15349)",80
"Hepatocyte growth factor receptor (MET, Homo sapiens, UniProt P08581, Y1235D)",100
"LIM domain kinase 2 (LIMK2, Homo sapiens, UniProt P53671)",88
"RAC-beta serine/threonine-protein kinase (AKT2, Homo sapiens, UniProt P31751)",81
"Receptor-type tyrosine-protein kinase FLT3 (FLT3, Homo sapiens, UniProt P36888, D835V/ITD)",94
"Serine/threonine-protein kinase haspin (HASPIN, Homo sapiens, UniProt Q8TF76)",100
"Inhibitor of nuclear factor kappa-B kinase subunit alpha (CHUK, Homo sapiens, UniProt O15111)",93
"BMP-2-inducible protein kinase (BMP2K, Homo sapiens, UniProt Q9NSY1)",100
"Cyclin-dependent kinase 17 (CDK17, Homo sapiens, UniProt Q00537)",100
"Phosphatidylinositol 4,5-bisphosphate 3-kinase catalytic subunit alpha isoform (PIK3CA, Homo sapiens, UniProt P42336, Q546K)",45
"Serine/threonine-protein kinase D3 (PRKD3, Homo sapiens, UniProt O94806)",83
"Receptor-type tyrosine-protein kinase FLT3 (FLT3, Homo sapiens, UniProt P36888, D835H)",88

# Study 4 — organism: Sarcocystis neurona; read-out: parasite growth; tested at: 10 µM; time: 96 h
SMILES,inhibition
COc1cc2nc(N(C)CCCNC(=O)C3CCCO3)nc(N)c2cc1OC (centres unmarked),-11.5%
CC(=O)NCCCCCCNC(C)=O,-8.9%
CCCCC(=O)O[C@]1(C(=O)CO)CC[C@H]2[C@@H]3CCC4=CC(=O)CC[C@]4(C)[C@H]3[C@@H](O)C[C@@]21C,-9.6%
CN1CCN(CCCN2c3ccccc3Sc3ccc(C(F)(F)F)cc32)CC1,-2.1%
CCN1CCN(C(=O)N[C@@H](C(=O)N[C@@H]2C(=O)N3[C@@H]2SC(C)(C)[C@@H]3C(=O)O)c2ccccc2)C(=O)C1=O,-17.9%
CCOC(=O)[C@H](CCc1ccccc1)N[C@H]1CCc2ccccc2N(CC(=O)O)C1=O,-14%
CCc1ccc(CCOc2ccc(CC3SC(=O)NC3=O)cc2)nc1 (centres unmarked),-10.5%
CCOc1cc(CC(=O)N[C@@H](CC(C)C)c2ccccc2N2CCCCC2)ccc1C(=O)O,-4.2%
Cc1cccc(C)c1NC(=O)C(C)N (centres unmarked),-0.8%
COC(=O)CCc1ccc(OCC(O)CNC(C)C)cc1 (centres unmarked),-11%
C=CC1=C(C(=O)O)N2C(=O)[C@@H](NC(=O)/C(=N\OCC(=O)O)c3csc(N)n3)[C@H]2SC1,-11.1%
CC1(C)O[C@@H]2C[C@H]3[C@@H]4C[C@H](F)C5=CC(=O)C=C[C@]5(C)[C@@]4(F)[C@@H](O)C[C@]3(C)[C@]2(C(=O)CO)O1,-2.9%
Cc1ccsc1C(=CCCN1CCC[C@@H](C(=O)O)C1)c1sccc1C,-18.7%
NC[C@H]1CC[C@H](C(=O)Oc2ccc(CCC(=O)O)cc2)CC1,-9.3%
OCCN1C[C@H](O)[C@@H](O)[C@H](O)[C@H]1CO,-6.2%
NC(=O)c1cnccn1,-14.8%
CCCCc1nc(Cl)c(CO)n1Cc1ccc(-c2ccccc2-c2nn[nH]n2)cc1,-13.9%
COCCCC/C(=N\OCCN)c1ccc(C(F)(F)F)cc1,-3.1%
O=C(O)c1cc(/N=N/c2ccc(S(=O)(=O)Nc3ccccn3)cc2)ccc1O,-16.4%
CCN(CC)CCOC(=O)c1ccc(N)cc1,-13.9%
CNC(=C[N+](=O)[O-])NCCSCc1csc(CN(C)C)n1,-18.6%
COc1ccc(OC)c(C(O)CNC(=O)CN)c1 (centres unmarked),-17.7%
O=c1[nH]cnc2c1ncn2[C@H]1CC[C@@H](CO)O1,-12.8%

# Study 5 — cell line: mouse MPNST tumor cells; method: high-content immunofluorescence imaging; measured: nuclear SOX9; tested at: 10 µM; time: 12 h; setting: mean of 2 replicates; reference: DMSO control; direction: higher = more nuclear SOX9
Compound,nuclear SOX9 intensity
CN1CCN(C(=O)c2ccc(-n3nc(-c4ccc(C(=O)O)cc4)cc3-c3cc(C(C)(C)C)cc(C(C)(C)C)c3)cc2)CC1,92.1 % of DMSO
Oc1ncnc2[nH]ncc12,98.7 % of DMSO and 94.6 % of DMSO
Cc1ccc(S(=O)(=O)NC2c3ccccc3Oc3ccccc32)cc1,107 % of DMSO
O=C(O[C@@H]1C[C@@H]2C[C@H]3C[C@H](C1)N2CC3=O)c1c[nH]c2ccccc12,101 % of DMSO and 88.9 % of DMSO
O=C(NC(NC(=S)Nc1ccc(F)c([N+](=O)[O-])c1)C(Cl)(Cl)Cl)C(c1ccccc1)c1ccccc1 (centres unmarked),84.1 % of DMSO
Nc1nc(N)c2nc(-c3ccccc3)c(N)nc2n1,129 % of DMSO
CCN(CC)CCc1nc(-c2ccccc2)no1,103 % of DMSO
CN(C)c1cccc(Oc2cnc(Nc3cccc(O)c3)nc2)c1,124 % of DMSO
COc1ccc(-c2ccc(=N)n(CCCC(=O)O)n2)cc1,94.3 % of DMSO
O=[N+]([O-])c1cccc2cn[nH]c12,91.6 % of DMSO
COC(=O)C(N)Cc1ccc(Cl)cc1 (centres unmarked),93.5 % of DMSO
NC(=O)c1cccc(-c2cccc(OC(=O)NC3CCCCC3)c2)c1,104 % of DMSO
CC[C@H]1OC(=O)C[C@@H](O)[C@H](C)[C@@H](O[C@@H]2O[C@H](C)[C@@H](O[C@H]3C[C@@](C)(O)[C@@H](O)[C@H](C)O3)[C@H](N(C)C)[C@H]2O)[C@@H](CC=O)C[C@@H](C)C(=O)/C=C/C(C)=C/[C@@H]1CO[C@@H]1O[C@H](C)[C@@H](O)[C@@H](OC)[C@H]1OC,102 % of DMSO
OC[C@H](Cc1ccccc1)Nc1nc(Oc2ccc3c(c2)CCC3)nc2c1ncn2Cc1ccc(-c2ccccc2)cc1,106 % of DMSO
COc1ccc(CCC(=O)Nc2nc3ccc(Cl)cc3s2)cc1OC,104 % of DMSO
CC(=O)Nc1cccc(Nc2ncnc(N3CCC(OCc4ccc(OC(F)(F)F)cc4)CC3)n2)c1C,113 % of DMSO
NN1CCOC1=O,103 % of DMSO
CCCCc1nn(-c2ccccc2C(F)(F)F)c(=O)n1Cc1ccc(-c2ccccc2S(=O)(=O)NC(=O)c2sccc2C)cc1,121 % of DMSO
CCCN1CCN(c2ccc(C(=O)NC3(C(=O)NCC#N)CCCCC3)cc2)CC1,102 % of DMSO
Cn1cnc([N+](=O)[O-])c1Sc1ncnc2[nH]cnc12,91.5 % of DMSO and 106 % of DMSO

# For quick reference, copied from above (study 4):
SMILES,inhibition
CCc1ccc(CCOc2ccc(CC3SC(=O)NC3=O)cc2)nc1 (centres unmarked),-10.5%
CCOc1cc(CC(=O)N[C@@H](CC(C)C)c2ccccc2N2CCCCC2)ccc1C(=O)O,-4.2%
Cc1cccc(C)c1NC(=O)C(C)N (centres unmarked),-0.8%
COC(=O)CCc1ccc(OCC(O)CNC(C)C)cc1 (centres unmarked),-11%
C=CC1=C(C(=O)O)N2C(=O)[C@@H](NC(=O)/C(=N\OCC(=O)O)c3csc(N)n3)[C@H]2SC1,-11.1%
CC1(C)O[C@@H]2C[C@H]3[C@@H]4C[C@H](F)C5=CC(=O)C=C[C@]5(C)[C@@]4(F)[C@@H](O)C[C@]3(C)[C@]2(C(=O)CO)O1,-2.9%
Cc1ccsc1C(=CCCN1CCC[C@@H](C(=O)O)C1)c1sccc1C,-18.7%
NC[C@H]1CC[C@H](C(=O)Oc2ccc(CCC(=O)O)cc2)CC1,-9.3%
OCCN1C[C@H](O)[C@@H](O)[C@H](O)[C@H]1CO,-6.2%
NC(=O)c1cnccn1,-14.8%
